Assay results of several laboratories.
Parts stem from different laboratories: compare values within a part only.
Chain of UniProt P00519 (whole entry, unmodified, looked up): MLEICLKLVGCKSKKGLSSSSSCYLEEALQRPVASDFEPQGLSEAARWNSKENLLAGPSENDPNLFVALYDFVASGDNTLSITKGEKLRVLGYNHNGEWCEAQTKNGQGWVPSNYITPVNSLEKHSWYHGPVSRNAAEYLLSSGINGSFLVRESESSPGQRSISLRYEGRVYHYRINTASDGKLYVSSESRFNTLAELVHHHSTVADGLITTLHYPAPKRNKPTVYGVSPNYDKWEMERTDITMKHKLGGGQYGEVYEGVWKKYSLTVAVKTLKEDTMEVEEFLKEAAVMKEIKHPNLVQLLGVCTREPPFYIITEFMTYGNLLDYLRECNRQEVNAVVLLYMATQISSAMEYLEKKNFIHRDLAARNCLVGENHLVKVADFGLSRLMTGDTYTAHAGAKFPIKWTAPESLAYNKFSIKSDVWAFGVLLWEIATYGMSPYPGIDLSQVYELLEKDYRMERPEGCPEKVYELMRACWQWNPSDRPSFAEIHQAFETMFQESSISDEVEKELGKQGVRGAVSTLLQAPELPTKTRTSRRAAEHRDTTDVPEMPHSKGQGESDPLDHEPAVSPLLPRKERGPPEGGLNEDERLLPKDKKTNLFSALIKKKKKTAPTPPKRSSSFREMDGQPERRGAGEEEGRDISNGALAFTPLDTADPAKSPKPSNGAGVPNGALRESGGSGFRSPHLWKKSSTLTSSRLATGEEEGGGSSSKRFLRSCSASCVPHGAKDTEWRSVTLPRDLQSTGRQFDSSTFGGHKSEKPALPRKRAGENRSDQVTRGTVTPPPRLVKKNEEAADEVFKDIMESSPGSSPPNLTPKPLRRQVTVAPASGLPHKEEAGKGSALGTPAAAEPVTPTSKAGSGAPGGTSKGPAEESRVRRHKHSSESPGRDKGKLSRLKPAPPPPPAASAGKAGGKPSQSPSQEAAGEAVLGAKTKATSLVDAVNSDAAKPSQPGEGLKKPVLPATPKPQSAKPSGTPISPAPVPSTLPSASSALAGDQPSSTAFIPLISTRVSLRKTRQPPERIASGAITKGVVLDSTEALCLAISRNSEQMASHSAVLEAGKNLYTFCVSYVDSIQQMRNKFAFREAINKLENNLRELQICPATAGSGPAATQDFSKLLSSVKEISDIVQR
Chain of UniProt O75716 (whole entry, looked up): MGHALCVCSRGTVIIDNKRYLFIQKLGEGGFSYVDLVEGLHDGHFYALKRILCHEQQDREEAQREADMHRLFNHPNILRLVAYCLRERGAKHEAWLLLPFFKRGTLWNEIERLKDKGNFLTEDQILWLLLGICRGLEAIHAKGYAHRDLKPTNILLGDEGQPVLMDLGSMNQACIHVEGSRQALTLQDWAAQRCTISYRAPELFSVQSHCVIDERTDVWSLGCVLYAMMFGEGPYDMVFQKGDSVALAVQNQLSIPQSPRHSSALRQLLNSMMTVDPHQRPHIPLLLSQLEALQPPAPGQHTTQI
Chain of UniProt Q9P289 (whole entry, looked up): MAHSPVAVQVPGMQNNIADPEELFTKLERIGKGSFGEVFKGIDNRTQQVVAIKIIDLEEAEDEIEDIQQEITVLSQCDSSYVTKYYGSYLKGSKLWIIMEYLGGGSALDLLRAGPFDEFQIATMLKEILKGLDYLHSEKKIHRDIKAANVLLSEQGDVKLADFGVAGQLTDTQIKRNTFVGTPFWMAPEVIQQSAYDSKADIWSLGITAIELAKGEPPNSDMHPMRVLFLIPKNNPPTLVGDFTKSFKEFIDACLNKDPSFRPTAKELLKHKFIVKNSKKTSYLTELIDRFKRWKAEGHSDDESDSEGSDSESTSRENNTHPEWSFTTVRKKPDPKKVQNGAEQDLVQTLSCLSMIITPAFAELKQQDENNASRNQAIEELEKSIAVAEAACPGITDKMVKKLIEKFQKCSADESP
Chain of UniProt P36896 (whole entry, looked up): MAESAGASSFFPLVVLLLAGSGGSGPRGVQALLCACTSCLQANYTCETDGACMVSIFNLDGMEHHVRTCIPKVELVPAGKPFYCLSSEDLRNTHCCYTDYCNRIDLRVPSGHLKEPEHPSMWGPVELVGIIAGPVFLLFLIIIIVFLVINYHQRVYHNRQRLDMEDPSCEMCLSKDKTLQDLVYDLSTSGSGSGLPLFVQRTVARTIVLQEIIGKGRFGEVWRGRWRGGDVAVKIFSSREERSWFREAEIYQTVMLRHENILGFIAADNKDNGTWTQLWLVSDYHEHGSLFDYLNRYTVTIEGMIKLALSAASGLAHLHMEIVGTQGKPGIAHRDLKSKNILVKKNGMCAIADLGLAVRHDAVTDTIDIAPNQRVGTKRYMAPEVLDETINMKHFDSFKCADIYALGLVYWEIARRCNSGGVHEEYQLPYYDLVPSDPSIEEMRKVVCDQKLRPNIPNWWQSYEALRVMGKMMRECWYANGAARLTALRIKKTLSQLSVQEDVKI
Chain of UniProt O00574 (whole entry, looked up): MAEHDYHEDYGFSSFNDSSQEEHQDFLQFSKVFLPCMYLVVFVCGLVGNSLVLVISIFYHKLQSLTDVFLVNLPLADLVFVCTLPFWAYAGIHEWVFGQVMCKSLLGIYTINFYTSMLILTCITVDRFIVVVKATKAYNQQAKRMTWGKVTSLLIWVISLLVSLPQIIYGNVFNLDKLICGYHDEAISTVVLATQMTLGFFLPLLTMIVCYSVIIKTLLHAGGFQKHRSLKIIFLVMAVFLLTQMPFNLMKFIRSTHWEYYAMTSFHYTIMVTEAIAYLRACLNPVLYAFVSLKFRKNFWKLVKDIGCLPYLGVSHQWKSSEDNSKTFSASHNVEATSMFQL
Chain of UniProt Q9UEE5 (whole entry, looked up): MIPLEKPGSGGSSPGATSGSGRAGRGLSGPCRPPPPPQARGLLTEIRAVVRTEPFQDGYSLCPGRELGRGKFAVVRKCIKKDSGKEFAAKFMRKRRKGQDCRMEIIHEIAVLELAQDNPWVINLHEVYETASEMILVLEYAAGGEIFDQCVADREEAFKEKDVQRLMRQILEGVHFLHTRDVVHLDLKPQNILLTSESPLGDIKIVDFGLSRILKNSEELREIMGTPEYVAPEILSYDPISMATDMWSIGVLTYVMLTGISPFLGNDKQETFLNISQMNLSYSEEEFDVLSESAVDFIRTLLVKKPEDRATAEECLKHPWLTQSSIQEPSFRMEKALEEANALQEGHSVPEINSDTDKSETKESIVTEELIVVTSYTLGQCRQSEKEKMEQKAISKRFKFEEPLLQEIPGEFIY
Chain of UniProt Q9Y243 (whole entry, looked up): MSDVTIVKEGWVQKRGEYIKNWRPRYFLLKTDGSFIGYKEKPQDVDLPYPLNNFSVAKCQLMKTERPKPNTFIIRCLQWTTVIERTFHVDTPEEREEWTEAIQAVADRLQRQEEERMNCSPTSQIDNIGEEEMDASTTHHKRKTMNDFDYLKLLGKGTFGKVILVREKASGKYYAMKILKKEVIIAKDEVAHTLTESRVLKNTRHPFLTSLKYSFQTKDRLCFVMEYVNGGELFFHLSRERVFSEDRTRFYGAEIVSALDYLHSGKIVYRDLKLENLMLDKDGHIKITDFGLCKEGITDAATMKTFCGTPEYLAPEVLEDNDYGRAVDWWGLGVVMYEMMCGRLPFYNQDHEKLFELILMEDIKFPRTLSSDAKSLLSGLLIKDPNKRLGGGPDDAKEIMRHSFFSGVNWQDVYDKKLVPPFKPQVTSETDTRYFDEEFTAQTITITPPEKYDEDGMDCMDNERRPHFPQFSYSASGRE
Chain of UniProt Q13554 (whole entry, looked up): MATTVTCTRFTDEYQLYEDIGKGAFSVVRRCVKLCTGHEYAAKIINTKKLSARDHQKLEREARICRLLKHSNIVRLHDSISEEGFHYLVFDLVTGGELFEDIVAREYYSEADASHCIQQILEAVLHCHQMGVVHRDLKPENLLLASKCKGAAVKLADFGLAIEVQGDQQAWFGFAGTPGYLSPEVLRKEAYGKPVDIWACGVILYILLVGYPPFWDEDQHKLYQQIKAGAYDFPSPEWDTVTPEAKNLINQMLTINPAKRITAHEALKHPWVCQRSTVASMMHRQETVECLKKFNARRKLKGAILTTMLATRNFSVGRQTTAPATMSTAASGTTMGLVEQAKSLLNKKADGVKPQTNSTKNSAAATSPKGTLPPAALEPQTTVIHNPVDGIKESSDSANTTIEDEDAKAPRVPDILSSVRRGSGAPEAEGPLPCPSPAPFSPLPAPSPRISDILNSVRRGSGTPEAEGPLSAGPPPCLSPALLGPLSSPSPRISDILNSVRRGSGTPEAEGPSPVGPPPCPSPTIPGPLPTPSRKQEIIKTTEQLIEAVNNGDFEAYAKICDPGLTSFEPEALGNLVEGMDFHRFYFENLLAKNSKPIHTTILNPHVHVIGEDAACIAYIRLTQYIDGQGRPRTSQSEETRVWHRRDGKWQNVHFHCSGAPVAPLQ
Chain of UniProt O15552 (whole entry, looked up): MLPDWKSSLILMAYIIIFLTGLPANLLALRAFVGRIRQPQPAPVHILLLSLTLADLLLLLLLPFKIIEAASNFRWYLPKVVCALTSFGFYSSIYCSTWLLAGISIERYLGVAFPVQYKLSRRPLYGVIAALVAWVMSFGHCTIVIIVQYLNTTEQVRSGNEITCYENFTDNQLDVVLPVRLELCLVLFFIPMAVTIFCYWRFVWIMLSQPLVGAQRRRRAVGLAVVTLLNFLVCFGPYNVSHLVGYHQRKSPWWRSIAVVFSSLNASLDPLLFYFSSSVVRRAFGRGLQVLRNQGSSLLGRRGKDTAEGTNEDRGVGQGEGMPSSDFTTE
Chain of UniProt Q9UPC5 (whole entry, looked up): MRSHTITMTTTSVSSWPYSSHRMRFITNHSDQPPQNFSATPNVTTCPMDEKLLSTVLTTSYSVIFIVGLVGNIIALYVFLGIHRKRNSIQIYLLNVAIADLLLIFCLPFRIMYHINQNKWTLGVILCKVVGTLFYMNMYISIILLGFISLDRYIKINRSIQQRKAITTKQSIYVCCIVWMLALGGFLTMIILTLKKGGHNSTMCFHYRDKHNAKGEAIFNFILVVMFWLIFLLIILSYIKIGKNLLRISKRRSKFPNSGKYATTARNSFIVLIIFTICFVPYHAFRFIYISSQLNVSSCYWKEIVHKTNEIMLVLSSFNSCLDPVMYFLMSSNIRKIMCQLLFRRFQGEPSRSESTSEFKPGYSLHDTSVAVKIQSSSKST

Set 1 — SMILES: CCN(c1nc(N)c(C(=O)N=C(N)N)nc1Cl)C(C)C; effect on: β-arrestin recruitment; mode: agonist; technique: PRESTO-Tango; tested at: 10 µM; relative to: untreated
For Probable G-protein coupled receptor 34 (Homo sapiens, UniProt Q9UPC5): “fold over basal” read 0.92.
C-C chemokine receptor-like 2 (Homo sapiens, UniProt O00421) — “fold over basal”: 1.05.
HRH1 (Homo sapiens, UniProt P35367) — “fold over basal”: 0.9 fold.
For SSTR3 (Homo sapiens, UniProt P32745): “fold over basal” read 0.76 fold.
The “fold over basal” was 0.96 (C3AR1 (Homo sapiens, UniProt Q16581)).
For NTSR2 (Homo sapiens, UniProt O95665): “fold over basal” read 1.15.
The “fold over basal” was 0.75 (CXCR6 (Homo sapiens, UniProt O00574)).
HCAR2 (Homo sapiens, UniProt Q8TDS4) — “fold over basal”: 0.74 fold.
The “fold over basal” was 0.77 (CNR1 (Homo sapiens, UniProt P21554)).
The “fold over basal” was 0.68 fold (FFAR2 (Homo sapiens, UniProt O15552)).
For ADGRG1 (Homo sapiens, UniProt Q9Y653): “fold over basal” read 0.88.
The “fold over basal” was 0.93 (CRHR1 (Homo sapiens, UniProt P34998)).
G-protein coupled receptor 87 (GPR87, Homo sapiens, UniProt Q9BY21) — “fold over basal”: 0.89.

Set 2 — SMILES: N#CC(=C(N)Sc1ccc(N)cc1)c1ccccc1C(F)(F)F; effect on: enzyme activity; mode: inhibitor; tested at: 0.5 µM; relative to: control
The remaining activity was 102% (EPHB4 (Homo sapiens, UniProt P54760)).
STK16 (Homo sapiens, UniProt O75716) — remaining activity: 98.4%.
The remaining activity was 106% (ABL1 (Homo sapiens, UniProt P00519)).
For PDPK1 (Homo sapiens, UniProt O15530): remaining activity read 103%.
It gave 103% for remaining activity (Cyclin-dependent kinase 6, with cyclin D3 (CDK6, Homo sapiens, UniProt Q00534)).
AXL (Homo sapiens, UniProt P30530) — remaining activity: 119%.
HIPK2 (Homo sapiens, UniProt Q9H2X6) — remaining activity: 115%.
The remaining activity was 98.8% (EPHB1 (Homo sapiens, UniProt P54762)).
It gave 99.3% for remaining activity (EPHA4 (Homo sapiens, UniProt P54764)).
RPS6KA5 (Homo sapiens, UniProt O75582) — remaining activity: 97.9%.
For PRKACG (Homo sapiens, UniProt P22612): remaining activity read 101%.
The remaining activity was 105% (Cyclin-dependent kinase 1, with cyclin B (CDK1, Homo sapiens, UniProt P06493)).
STK17A (Homo sapiens, UniProt Q9UEE5) — remaining activity: 82.6%.
RPS6KA6 (Homo sapiens, UniProt Q9UK32) — remaining activity: 83.9%.
It gave 105% for remaining activity (SRMS (Homo sapiens, UniProt Q9H3Y6)).
It gave 95.8% for remaining activity (PHKG1 (Homo sapiens, UniProt Q16816)).
It gave 94.9% for remaining activity (WNK3 (Homo sapiens, UniProt Q9BYP7)).
It gave 100% for remaining activity (HIPK4 (Homo sapiens, UniProt Q8NE63)).
Cyclin-dependent kinase 4, with cyclin D3 (CDK4, Homo sapiens, UniProt P11802) — remaining activity: 108%.
For MAP4K4 (Homo sapiens, UniProt O95819): remaining activity read 93.4%.
It gave 94.2% for remaining activity (TSSK2 (Homo sapiens, UniProt Q96PF2)).
It gave 111% for remaining activity (BLK (Homo sapiens, UniProt P51451)).
The remaining activity was 102% (MAPKAPK3 (Homo sapiens, UniProt Q16644)).
It gave 105% for remaining activity (DYRK3 (Homo sapiens, UniProt O43781)).
CAMK2B (Homo sapiens, UniProt Q13554) — remaining activity: 93.5%.

Set 3 — mode: inhibitor; tested at: 10 µM; relative to: control
Target: Diamine acetyltransferase 1 (Homo sapiens, UniProt P21673)
Target sequence (P21673 1-171): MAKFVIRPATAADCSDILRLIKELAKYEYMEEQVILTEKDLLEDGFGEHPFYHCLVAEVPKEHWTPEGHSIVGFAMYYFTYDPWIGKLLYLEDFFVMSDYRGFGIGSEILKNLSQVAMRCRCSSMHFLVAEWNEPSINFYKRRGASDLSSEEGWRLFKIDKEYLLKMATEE
`O=C(O)c1cc(O)c2c(c1)C(=O)c1cccc(O)c1C2=O` has a remaining activity of 75.7%.
`COc1c2ccoc2c(OCC=C(C)C)c2oc(=O)ccc12` has a remaining activity of 122%.
`O=C(/C=C/c1ccc(O)c2c1[C@H](C(=O)O)[C@@H](c1ccc(O)c(O)c1)O2)O[C@H](Cc1ccc(O)c(O)c1)C(=O)O` has a remaining activity of 72%.
With `N[C@@H](Cc1c[nH]c2ccccc12)C(=O)O` the remaining activity was 101%.
The remaining activity of `O=C(/C=C/c1ccc(O)c(O)c1)O[C@@H]1C[C@@](O)(C(=O)O)C[C@@H](O)[C@@H]1O` is reported as 103%.
For `Oc1cc(O)c2ccccc2c1`, the remaining activity was 101%.
For `O=C(O)[C@@H]1CCCN1`, the remaining activity was 90%.
The remaining activity of `C/C=C/c1ccc(OC)cc1` is reported as 93.6%.
`CCCCCCCCCCCCCCCCO` has a remaining activity of 80.6%.
With `CC(C)=CCCC(C)CCO` (stereo not shown) the remaining activity was 99.2%.
`O=C(O)[C@@H](O)[C@H](O)C(=O)O` gave a remaining activity of 97.2%.
`COc1ccc2c(c1)O[C@H]1c3ccc(O)cc3OC[C@@H]21` has a remaining activity of 96.6%.
With `Cc1nc(C)c(C)nc1C` the remaining activity was 91.3%.

Set 4 — effect on: cell-free assay; technique: competition with immobilised ligand; tested at: 0.1 µM
SMILES: Cc1c[nH]c2nccc(Oc3c(F)cc(Nc4cc(Cl)nc(N)n4)cc3F)c12
For Tyrosine-protein kinase ABL1, non-phosphorylated (ABL1, Homo sapiens, UniProt P00519, F317L): remaining binding read 84%.
ULK3 (Homo sapiens, UniProt Q6PHR2) — remaining binding: 88%.
It gave 98% for remaining binding (DAPK1 (Homo sapiens, UniProt P53355)).
For STK26 (Homo sapiens, UniProt Q9P289): remaining binding read 100%.
STK16 (Homo sapiens, UniProt O75716) — remaining binding: 87%.
MET (Homo sapiens, UniProt P08581, M1250T) — remaining binding: 99%.
ANKK1 (Homo sapiens, UniProt Q8NFD2) — remaining binding: 85%.
The remaining binding was 94% (ACVR1 (Homo sapiens, UniProt Q04771)).
TGFBR1 (Homo sapiens, UniProt P36897) — remaining binding: 81%.
KIT (Homo sapiens, UniProt P10721, V559D) — remaining binding: 90%.
The remaining binding was 100% (FLT1 (Homo sapiens, UniProt P17948)).
It gave 87% for remaining binding (ACVR1B (Homo sapiens, UniProt P36896)).
It gave 89% for remaining binding (Tyrosine-protein kinase ABL1, non-phosphorylated (ABL1, Homo sapiens, UniProt P00519)).
RIOK2 (Homo sapiens, UniProt Q9BVS4) — remaining binding: 85%.
For MET (Homo sapiens, UniProt P08581, Y1235D): remaining binding read 88%.
For DMPK (Homo sapiens, UniProt Q09013): remaining binding read 56%.
It gave 86% for remaining binding (ABL2 (Homo sapiens, UniProt P42684)).
For NEK1 (Homo sapiens, UniProt Q96PY6): remaining binding read 96%.
The remaining binding was 98% (MAP3K12 (Homo sapiens, UniProt Q12852)).
For EPHA1 (Homo sapiens, UniProt P21709): remaining binding read 100%.
PRKCD (Homo sapiens, UniProt Q05655) — remaining binding: 100%.
PRKACB (Homo sapiens, UniProt P22694) — remaining binding: 36%.
CLK1 (Homo sapiens, UniProt P49759) — remaining binding: 83%.
It gave 78% for remaining binding (AKT3 (Homo sapiens, UniProt Q9Y243)).
It gave 63% for remaining binding (FLT3 (Homo sapiens, UniProt P36888, D835Y)).

Some of these lines once more (set 4):
For NEK1 (Homo sapiens, UniProt Q96PY6): remaining binding read 96%.
The remaining binding was 98% (MAP3K12 (Homo sapiens, UniProt Q12852)).
For EPHA1 (Homo sapiens, UniProt P21709): remaining binding read 100%.
PRKCD (Homo sapiens, UniProt Q05655) — remaining binding: 100%.
PRKACB (Homo sapiens, UniProt P22694) — remaining binding: 36%.
CLK1 (Homo sapiens, UniProt P49759) — remaining binding: 83%.
It gave 78% for remaining binding (AKT3 (Homo sapiens, UniProt Q9Y243)).
It gave 63% for remaining binding (FLT3 (Homo sapiens, UniProt P36888, D835Y)).
